Measurements of several laboratories.
Each numbered part is a random draw from the data of one study; scales do not carry over between parts. Positions count from the first letter of the parent shown.

Block 1 — target: CCNF, cyclin fold, Cln2 fusion (human); method: yeast growth competition, sequencing; matrix: yeast; setting: strong parent motif; relative to: not given; direction: higher = stronger binding
Parent: CDKN1B docking peptide (human); PSACRNLFGPVDH
Change | normalised enrichment score
PSACRNLFGPVMH [D12M] | 7.09
HSACRNLFGPVDH [P1H] | 7.86
PSACRNLFGPVEH [D12E] | 6.72
PSAIRNLFGPVDH [C4I] | 5.22
PSACRNLFGPVTH [D12T] | 6.95
PSAPRNLFGPVDH [C4P] | 1.99
PSACRNLFTPVDH [G9T] | 4.18
PSACRNLFGSVDH [P10S] | 7.07
PSACRNLFDPVDH [G9D] | 4.43
PSACRPLFGPVDH [N6P] | 3.57
PSAGRNLFGPVDH [C4G] | 1.86
PSACRNLFGPVDA [H13A] | 6.78
PSACRNLFGPVDS [H13S] | 6.96
PSACRNLFGPVDQ [H13Q] | 7.06
PSACRNLFGPCDH [V11C] | 6
PSACRNLPGPVDH [F8P] | 0.747
PSATRNLFGPVDH [C4T] | 2.28
PSECRNLFGPVDH [A3E] | 3.47
PSACRTLFGPVDH [N6T] | 4.35
PSACRNLDGPVDH [F8D] | -0.541
PSACRNLFGPHDH [V11H] | 7.12
PSACSNLFGPVDH [R5S] | 0.342
PSACRNLFGAVDH [P10A] | 5.88
PTACRNLFGPVDH [S2T] | 6.89
PSACRNDFGPVDH [L7D] | 0.387

Block 2 — method: DHFR PCA, deep sequencing; matrix: yeast; with: (+)-ABA 200 µM; relative to: wild-type fitted maximum; direction: higher = stronger binding
Target: ABI1, truncated, D143A, DHFR fusion (Arabidopsis thaliana)
Setting: methotrexate growth selection, single substitutions
Parent: PYL1, truncated, DHFR fusion (Arabidopsis thaliana); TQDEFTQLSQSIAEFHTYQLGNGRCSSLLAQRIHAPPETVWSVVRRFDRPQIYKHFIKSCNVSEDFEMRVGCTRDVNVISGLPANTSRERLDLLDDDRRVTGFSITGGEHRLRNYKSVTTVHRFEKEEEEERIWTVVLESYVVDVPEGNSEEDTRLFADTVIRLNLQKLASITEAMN
Change | relative binding score [%]
S27G | 102
G107I | 9.19
D65T | 97.9
N149S | 94.8
L20E | 101
D97P | 91.4
Q7F | 95.2
G148H | 82.2
L20S | 104
G148V | 50.6
N61V | 103
L169V | 31.1
S87Y | 22.8
L82Q | 43.4
R111L | 82.1

Block 3 — target: CREBRF, bZIP domain (human); method: DHFR protein complementation; matrix: yeast; relative to: wild-type JUN-FOS pair; direction: higher = stronger binding
Setting: single substitutions, most at no-binding floor
Parent: JUN, bZIP domain (human); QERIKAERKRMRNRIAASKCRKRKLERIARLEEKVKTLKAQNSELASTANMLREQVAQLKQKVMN; partner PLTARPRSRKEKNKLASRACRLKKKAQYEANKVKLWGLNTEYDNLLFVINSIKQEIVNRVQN
Change | binding fitness [natural log]
L31Y | -1.25
L38S | -1.52
A29I | -1.26
E33I | -1.42
L38E | -1.51
L31D | -1.38
T48Q | -1.35
N42Y | -1.58
R30Q | -1.3
S43T | -1.37
A49L | -1.45

Block 4 — method: RNA Bind-n-Seq; molecule type: RNA; matrix: in vitro; tested at: 365 nM; relative to: no-protein control; direction: higher = stronger binding
Target: RNA binding protein fox-1 homolog 2, RRM domain, GST-SBP tag (RBFOX2, Homo sapiens, UniProt O43251-10, residues 100-194)
Setting: natural RNA segment, single round, ends assumed
Shared flanks, not repeated: GGGAGUUCUACAGUCCGACGAUC … UGGAAUUCUCGGGUGCCAA
Oligonucleotide | RBNS enrichment (R)
UGAAAUGUUUACCCCAUUGACCAAACUUGGCUCCAGCCAUUGCGGUGGUUUCUAGAUAGCCAGGCCCACCAAGAGAUAUUGCCCCUUGAUGAGAGUCAAACACCCUGCCU | 0.38
AAUAAGACUUUCCCUGCCAACCAGGACAGCCUGGACCAUGCCUGCCUGUUCACUGUUUCAGGCUGCUCAGCACACAUUGGGAGAGGUGGCCAUAUCCCAGAACACUACCU | 1.43
GUAUGAAACAAUGUACAAAUCAAUGUUUUGAAAAUAAUGAUCUCAGACUUUCUAAGUUAAAUUUUAAAAAUUUUGAUUGUUUGCCAUAUUGGGUGGGUUUACUCUUAGAA | 13.3
ACUUGAAUAACGUCUUCUCUUUACUAUUACACACGAGGCAGCCUAUUAACCUGUGUCUUAGAAUUGUUGUAUAUAGUUCUUUUAAUAUCCAUAGGGUAUAUUUUUGAAUU | 0.554
CUACGAGUAGGAUCUCUUCACGGAGGACCUGCAGCUUCAUCUUCUGGAUUGGAGAUUAUUCUUGGUUAUGUUUUGGAAUCAGUCCUUUAUCUUAGUGUGCACUUGAUUGU | 3.7
GCCUCUGCCUCCCGAGUGCUGGGAUUAAAGGCGUGCGCCACCACGCCCGGCUCUGUUCAUCCUUUUAAAGGUAGAUCUUUUAUAACAUCCUUUGCCACCUUGAGAUGAUU | 0.511
CUUUUUCACUCCAUCCAGCUUAGAGUCCCCUGCUGGCUUGUCACUCGCCUGCUUUGUGCCAGGCUGGUCUGUGUCCCCCUGAGCCUCAUGGCCUACGGUGAUGCCUGUGG | 1.24
UUCAAAAGUAUCUUUGCUCUCUUGGGCCUUUUCUUUUACUGUUUUGUUUUUUUUUUUUCUAAUCCUGCUUUCAUACUAGCCAGUGUGGGGAAAAGGUACAAUAUGUCAAA | 0.923

Single results of other studies
Substance | target | assay | system | conditions | how to read | endpoint | value
PhoQ, residues 284 288 289 292 302 303 AMDMFI | PhoP, residues 12 14 15 18 19 GHCSL (Escherichia coli, UniProt P23836) | Sort-seq, refers to: YFP reporter | E. coli | PhoQ-PhoP variant library, with: 10 µM Mg2+ | relative to: high Mg2+ state, higher = stronger signaling | fold induction | 0.832

A few entries again (block 1):
Change | normalised enrichment score
PSACRNLFGPVDS [H13S] | 6.96
PSACRNLFGPVDQ [H13Q] | 7.06
PSACRNLFGPCDH [V11C] | 6
PSACRNLPGPVDH [F8P] | 0.747
PSATRNLFGPVDH [C4T] | 2.28
PSECRNLFGPVDH [A3E] | 3.47
PSACRTLFGPVDH [N6T] | 4.35
